Results gathered from unrelated publications.
Protocols differ between the studies behind these lines. Numbers after ± are the reported error.

Sequences of proteins named here, by UniProt entry; tags and fusion partners are left off. Residues count along the entry.
UniProt P53779, 1-422 isoform 2: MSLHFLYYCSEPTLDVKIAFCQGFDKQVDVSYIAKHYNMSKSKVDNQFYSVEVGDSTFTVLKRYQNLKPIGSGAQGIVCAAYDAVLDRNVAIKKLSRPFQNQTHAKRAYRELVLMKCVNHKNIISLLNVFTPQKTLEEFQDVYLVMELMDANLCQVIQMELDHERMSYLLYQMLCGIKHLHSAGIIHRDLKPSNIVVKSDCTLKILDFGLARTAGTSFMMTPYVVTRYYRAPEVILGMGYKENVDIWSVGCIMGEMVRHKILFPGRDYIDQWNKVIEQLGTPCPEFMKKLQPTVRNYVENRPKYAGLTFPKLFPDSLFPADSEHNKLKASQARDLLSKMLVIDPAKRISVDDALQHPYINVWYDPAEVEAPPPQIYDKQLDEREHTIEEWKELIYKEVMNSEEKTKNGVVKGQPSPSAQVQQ

SMILES | target or system | assay | system | conditions | scale | endpoint | result
C=CC(=O)N1CCC(c2cc(Nc3cc4n(n3)CCOC4)c3ncnn3c2)C1 (single isomer, unassigned) | Ramos | calcium flux, FLIPR | – | 4 h preincubation, added: anti-IgM | – | maximum inhibition | 27.4%
CC(C)[C@H](NC(=O)N[C@@H](CCCCN)C(=O)N[C@@H](CNC(=O)CCCCCCCCCCS)C(=O)NCCCNC(C[C@H]1O[C@@H](n2ccc(=O)[nH]c2=O)[C@H](O)[C@@H]1O)C(=O)O)C(=O)O (stereo partly shown) | Escherichia coli | growth | DH5alpha | – | – | IC50 | > 100 µg/mL
CCOC(=O)C1=C(C)NC2=C(C(=O)CC(C)(C)C2)C1c1ccc(OCC(=O)NN=Cc2cccc(C=O)c2)cc1OCC(=O)NN=Cc1cccc(C=O)c1 (stereo not shown) | Escherichia coli | – | ATCC 25922 | concentration not given, 24 h | – | inhibition zone diameter | 4 ± 0.01 mm
CC(F)(F)c1nc2nc(CO)cc(Nc3ccc(C(F)(F)F)nc3)n2n1 | Plasmodium falciparum | blood stage growth | 3D7, Albumax medium | 72 h | – | EC50 | 0.62 µM
COC(=O)[C@@H]1C(C=Nc2cc(Cl)ccc2O)=Cc2cc3c(cc2[C@H]1c1cc(OC)c(OC)c(OC)c1)OCO3 | Leishmania infantum | iRFP fluorescence | mouse splenocytes infected, amastigote, iRFP, ex vivo splenic explant | 48 h | – | EC50 | 53.4 ± 4.5 µM
O=[N+]([O-])c1cc(CN2CCN(c3ccc(Cl)cc3)CC2)ccc1Cl | Saccharomyces cerevisiae | cell growth, doubling time | SEC14 -136 allele | Sec14 reduced ~7-fold | – | IC50 | 131 ± 52 µM
COc1cc([C@@H]2c3cc4c(cc3[C@@H](C=C(C)C)[C@H]3COC(=O)[C@H]23)OCO4)cc(OC)c1OC | Leishmania infantum | Alamar Blue | HepG2 | – | relative to: CC50 HepG2 over EC50 amastigotes | selectivity index | > 10.8
COC(=O)[C@@]1(C)C=C(C(=O)Nc2cccc(C(=O)NC34CC(Nc5nccc(-c6cccnc6)n5)(C3)C4)c2)C(=O)CC1 | MAPK10 (Homo sapiens, UniProt P53779) | enzyme activity, inhibitor | – | 8.363e-05 µM | – | remaining activity | 1.05 fraction of control
O=[N+]([O-])c1cc(CN2CCN(c3ccccc3F)CC2)ccc1Cl | Saccharomyces cerevisiae | cell growth, doubling time | wild type | – | – | IC50 | 91 ± 23 µM
Nc1ncc(-c2ccc3ncnc(N4CCc5cc(F)c(Cl)cc54)c3c2)cn1 | – | – | CD1 mouse, brain | intraperitoneal, 50 mg/kg | – | dose-normalised AUC(0-t) | 2330 mg·h/mL
Cc1ncsc1-c1ccc([C@H](C)NC(=O)[C@@H]2C[C@@H](O)CN2C(=O)[C@@H](NC(=O)CCCCCCC(=O)N2CCN(C[C@]3(C)CCC(c4ccc(Cl)cc4)=C(CN4CCN(c5ccc(C(=O)NS(=O)(=O)c6ccc(N[C@H](CCN7CCOCC7)CSc7ccccc7)c(S(=O)(=O)C(F)(F)F)c6)cc5)CC4)C3)CC2)C(C)(C)C)cc1 | – | – | STAM mice NASH-HCC model, liver | dose not given, day 90, treated from day 45 | – | triglyceride level | decreased
COc1cc([C@@H]2c3cc4c(cc3C=C(C=O)[C@H]2C(=O)OCc2ccc(CBr)cc2)OCO4)cc(OC)c1OC | Leishmania infantum | – | promastigote, iRFP | – | – | EC50 | 79.9 ± 5.7 µM
O=S(=O)(c1ccc(Cl)cc1)N1CCN(c2ccc(F)cc2)CC1 | Saccharomyces cerevisiae | cell growth, doubling time | SEC14 -136 allele | Sec14 reduced ~7-fold | – | IC50 | > 200 µM

Excerpt of the above:
SMILES | target or system | assay | system | conditions | scale | endpoint | result
O=[N+]([O-])c1cc(CN2CCN(c3ccccc3F)CC2)ccc1Cl | Saccharomyces cerevisiae | cell growth, doubling time | wild type | – | – | IC50 | 91 ± 23 µM
